# Measured values of several laboratories.
# Compare with care: the assays were run in different laboratories. Several values in a cell are separate wells, animals, samples, runs or records.
# PFF0160c E182D: Dihydroorotate dehydrogenase (quinone), mitochondrial (PFF0160c, Plasmodium falciparum, UniProt Q08210, E182D)
# Sialidase-3: Sialidase-3 (Homo sapiens, UniProt Q9UQ49)
# PFF0160c: Dihydroorotate dehydrogenase (quinone), mitochondrial (PFF0160c, Plasmodium falciparum, UniProt Q08210)
# Sialidase-4: Sialidase-4 (Homo sapiens, UniProt Q8WWR8)
# HLA class I histocompatibility antigen, B alpha chain: HLA class I histocompatibility antigen, B alpha chain (Homo sapiens, UniProt P01889)
Compound,tested on,assay,test system,conditions,endpoint,value
COC(=O)c1cc(-c2ccc(NC(=O)Nc3ccc(Cl)c(Cl)c3)cc2)on1,Mycobacteroides chelonae,"microbial growth, broth dilution",ATCC35752,48 h,MIC,> 64 µg/mL
Cc1nc(Nc2ccc(S(F)(F)(F)(F)F)cc2)c2c(C)noc2n1,PFF0160c E182D,"enzyme activity, inhibitor, absorbance",,,IC50,0.951 µM
CC(C)Cc1cn([C@H]2[C@H]([C@H](O)[C@H](O)CO)OC(C(=O)O)=C[C@@H]2O)nn1,Sialidase-3,"enzyme activity, inhibitor",,,IC50,> 500 µM
CCOC(=O)c1cn(CC)c2cc(O[C@H]3CCN(C(=O)OC(C)(C)C)C3)ccc2c1=O,PFF0160c,"enzyme activity, inhibitor, absorbance",,,IC50,2.58 µM
CCn1ccc2c([C@@](O)(CC)c3ccc(C(F)(F)F)nc3)n(C)nc2c1=O,PFF0160c,"enzyme activity, inhibitor",,,IC50,0.0501 µM
CCN(CC)C(=O)Oc1ccc(CCC(=O)N2CCC(Cc3ccccc3)CC2)cc1OC,"Cholinesterase (BCHE, Equus caballus, UniProt P81908)","enzyme activity, inhibitor, Ellman",,,IC50,2.8 µM
CN1C(=O)Cc2ccc(F)c(CNCCCC3CN(c4ccc5c(n4)NC(=O)CO5)C(=O)O3)c21 (stereo not drawn),"KCNH2 (Homo sapiens, UniProt Q12809)","ion current, inhibitor, patch clamp",,"2 min, pH 7.4",IC50,9 µM
Cc1nn(C)cc1-c1nc2c(N3CCN(Cc4ccc(Cl)cc4)CC3)c(Cl)cnc2[nH]1,"Tyrosine-protein kinase ABL1, non-phosphorylated (ABL1, Homo sapiens, UniProt P00519, T315I)","binding, competition with immobilised ligand",,1 µM,remaining binding,100%
CC(C)C[C@H](NC(=O)[C@H](Cc1ccccc1)NC(=O)[C@H](Cc1ccc(O)cc1)NC(=O)CNC(=O)[C@H](CCCCN)NC(=O)[C@H](CO)NC(=O)[C@H](CCC(N)=O)NC(=O)CNC(=O)[C@@H](NC(=O)[C@H](CO)NC(=O)[C@@H]1CCCN1C(=O)[C@H](CO)NC(=O)[C@H](CCC(N)=O)NC(=O)[C@H](Cc1ccc(O)cc1)NC(=O)[C@H](CCC(=O)O)NC(=O)[C@H](C)NC(=O)[C@H](CCCCN)NC(=O)[C@@H](N)Cc1ccccc1)C(C)C)C(=O)N[C@@H](Cc1ccccc1)C(=O)N[C@@H](CCCNC(=N)N)C(=O)N1CCC[C@H]1C(=O)N[C@@H](CCCNC(=N)N)C(=O)N[C@@H](CC(N)=O)C(N)=O,"NMUR1 (Homo sapiens, UniProt Q9HB89)","ligand displacement, radioligand",,cell membranes,IC50,4e-05 µM
COc1cc(CCC(=O)N2CCC(Cc3ccccc3)CC2)ccc1OC(=O)N1CCOCC1,"Cholinesterase (BCHE, Homo sapiens, UniProt P06276)","enzyme activity, inhibitor, Ellman",,,IC50,7.9 µM
CCc1ccccc1N=C1c2c(cccc2[N+](=O)[O-])C(=O)C1C(C)=O (stereo not drawn),PFF0160c,"enzyme activity, inhibitor, absorbance",,,IC50,0.121 µM
CC(C)(C)OC(=O)N1CCN(C(=O)n2cc(-c3ccc(OC(F)(F)F)cc3)nn2)C(Cc2ccccc2)C1 (stereo not drawn),"Diacylglycerol lipase-beta (Mus musculus, UniProt Q91WC9)","enzyme activity, inhibitor",,,IC50,0.0081 µM
[2H]c1c([2H])c([C@]2([2H])CCCN2C(=O)C(C)(C)Oc2ccc3cn[nH]c3c2)c([2H])c([2H])c1C([2H])([2H])[2H],"CDKL2 (Homo sapiens, UniProt Q92772)","binding, competition with immobilised ligand",,1 µM,remaining binding,64%
CC(C)CCN[C@H]1[C@H]([C@H](O)[C@H](O)CO)OC(C(=O)O)=C[C@@H]1O,Sialidase-3,"enzyme activity, inhibitor",,,IC50,400 µM
CCN(C)C(=O)Oc1ccc(CCC(=O)N2CCc3ccccc3C2)cc1OC,"Cholinesterase (BCHE, Equus caballus, UniProt P81908)","enzyme activity, inhibitor, Ellman",,,IC50,6.9 µM
CC(=O)N(C)[C@H]1[C@H]([C@H](O)[C@H](O)CO)OC(C(=O)O)=C[C@@H]1O,Sialidase-4,"enzyme activity, inhibitor",,,IC50,400 µM
O=c1cc(NCCCNCc2sc(Br)c(Br)c2Br)[nH]c2ccccc12,PFF0160c E182D,"enzyme activity, inhibitor, absorbance",,,IC50,2.42 µM
COc1ccc2[nH]c3c(c2c1)CCN(C)CC3,"Voltage-dependent N-type calcium channel subunit alpha-1B (Homo sapiens, UniProt Q00975)","ion current, inhibitor, patch clamp",,,IC50,189 µM and > 180 µM
Nc1ncc(-c2nc(N3CCOCC3)nc(N3CCOCC3)n2)c(C(F)F)n1,"Tyrosine-protein kinase ABL1, phosphorylated (ABL1, Homo sapiens, UniProt P00519, M351T)","binding, competition with immobilised ligand",,10 µM,remaining binding,68%
O=C(O)C1=C[C@H](O)[C@@H](n2cc(-c3ccc(-c4ccccc4)cc3)nn2)[C@H]([C@H](O)[C@H](O)CO)O1,Sialidase-4,"enzyme activity, inhibitor",,,IC50,80 µM
Cc1c(C(=O)OC2CC2)nn(C)c1Cc1ccc(C(F)(F)F)nc1,PFF0160c,"enzyme activity, inhibitor",,,IC50,0.1 µM
Cn1c(=O)ccc2ccc(F)c(CCNC[C@H]3CN(c4ncc5c(n4)NC(=O)CO5)C(=O)O3)c21,"gyrA (Escherichia coli K-12, UniProt P0AES4)","enzyme activity, inhibitor",,,IC50,0.041 µM
Cn1nc2c(=O)n(C3CC3)cnc2c1[C@](O)(c1cnc(C(F)(F)F)c(Cl)c1)C(F)(F)F,PFF0160c,"enzyme activity, inhibitor",,,IC50,0.0158 µM
CC(NC(=O)c1ccc(-n2cnc3ccccc32)cc1)c1ccc(S(N)(=O)=O)cc1 (stereo not drawn),PFF0160c,"enzyme activity, inhibitor, absorbance",,,IC50,7.41 µM
Cc1cn([C@H]2C[C@H](OP(=O)(O)OC[C@H]3O[C@@H](n4cc(C)c(=O)[nH]c4=O)C[C@@H]3O)[C@@H](COP(=O)(O)OP(=O)(O)OP(=O)(O)O)O2)c(=O)[nH]c1=O,"dgt (Salmonella enterica, UniProt A0A5H6DAK1)","enzyme activity, inhibitor",,,IC50,3.4 µM
CSCC[C@H](NC(=O)[C@@H](N)CCCNC(=N)N)C(=O)N[C@@H](Cc1c[nH]c2ccccc12)C(=O)N[C@@H](CO)C(=O)N[C@@H](CCCCN)C(=O)N1CCC[C@H]1C(=O)N[C@@H](CC(C)C)C(=O)N[C@@H](CCC(N)=O)C(=O)N[C@@H](Cc1ccccc1)C(=O)O,"HLA class I histocompatibility antigen, B alpha chain",cell-free assay,,,IC50,43.9 µM
CCn1cc(Cl)c2c(Cc3ccc(N4CCCCC4)nc3)n(C)nc2c1=O,PFF0160c,"enzyme activity, inhibitor",,,IC50,0.0158 µM
CC[C@H](C)[C@H](NC(=O)[C@H](Cc1c[nH]cn1)NC(=O)CNC(=O)[C@H](Cc1ccccc1)NC(=O)[C@H](CC(C)C)NC(=O)[C@@H](N)CCCNC(=N)N)C(=O)N[C@H](C(=O)N[C@@H](CCC(=O)O)C(=O)N[C@@H](Cc1ccc(O)cc1)C(=O)O)[C@@H](C)O,"HLA class I histocompatibility antigen, B alpha chain",cell-free assay,,,IC50,54.4 µM
CCC1(c2ccccc2)NC(=O)N(NC(=O)c2ccc3noc(-c4ccccc4)c3c2)C1=O (stereo not drawn),PFF0160c E182D,"enzyme activity, inhibitor, absorbance",,,IC50,6.11 µM
CCn1cc(C)c2c([C@H](O)c3ccc(C(F)(F)F)nc3)n(C)nc2c1=O,PFF0160c,"enzyme activity, inhibitor",,,IC50,0.0794 µM
CCCNC(=O)c1ccnc(-c2ccc(CNC3Cc4ccccc4C3)cc2)c1,PFF0160c E182D,"enzyme activity, inhibitor, absorbance",,,IC50,> 10 µM
CC[C@](O)(c1cnc(C(F)(F)F)c(Cl)c1)c1c2ccn(C3CC3)c(=O)c2nn1C,PFF0160c,"enzyme activity, inhibitor",,,IC50,12.6 µM
CC(C)C[C@H](NC(=O)[C@H]1O[C@@H]1C(=O)O)C(=O)NCCCCN=C(N)N,"Cathepsin K (CTSK, Homo sapiens, UniProt P43235)","enzyme activity, inhibitor",,,IC50,0.00064 µM
COC(=O)c1cc(-c2cccc(NC(=O)Nc3ccc(F)c(F)c3)c2)on1,Mycolicibacterium fortuitum,"microbial growth, broth dilution",ATCC6841,48 h,MIC,> 64 µg/mL
O=c1c2cccnc2sn1-c1ccccc1,PFF0160c,"enzyme activity, inhibitor, absorbance",,,IC50,> 10 µM
CSCC[C@H](NC(=O)[C@@H](NC(=O)[C@H](CC(C)C)NC(=O)[C@@H](NC(=O)[C@H](CCCCN)NC(=O)[C@H](CC(N)=O)NC(=O)[C@H](Cc1ccc(O)cc1)NC(=O)[C@H](CCSC)NC(=O)[C@@H](N)CCCNC(=N)N)[C@@H](C)O)[C@@H](C)O)C(=O)O,"HLA class I histocompatibility antigen, B alpha chain",cell-free assay,,,IC50,64.5 µM

# Some of these lines once more:
Compound,tested on,assay,test system,conditions,endpoint,value
CCN(C)C(=O)Oc1ccc(CCC(=O)N2CCc3ccccc3C2)cc1OC,"Cholinesterase (BCHE, Equus caballus, UniProt P81908)","enzyme activity, inhibitor, Ellman",,,IC50,6.9 µM
CC[C@](O)(c1cnc(C(F)(F)F)c(Cl)c1)c1c2ccn(C3CC3)c(=O)c2nn1C,PFF0160c,"enzyme activity, inhibitor",,,IC50,12.6 µM
